Measured values collected from several papers.
Every numbered part comes from another study and shows a few of its results, in no order. Several values in a cell are separate wells, animals, samples, runs or records. Substitutions count along the parent as printed.

Study 1
Target: Fragile X messenger ribonucleoprotein 1, C-terminal low-complexity region (Fmr1, Mus musculus, UniProt P35922)
Method: RNA Bind-n-Seq
Form: RNA
Medium: in vitro
Tested at: 200 nM
Setting: whole 134-nt RNA, ends assumed
Added: 150 mM LiCl
Relative to: input library
Reading: higher = stronger binding
Measurement: log2 enrichment
Each molecule: 7-deaza-guanosine replaces G
Constant ends, left off below: GGGAGUUCUACAGUCCGACGAUC … UGGAAUUCUCGGGUGUCAAGG
CUCAAGUCCUGUGCUACACAUCGUAUGUACCGAAUCGGUUUGGAAAAAGGUGGAAAGUAUUAUGUUACGCCGUUCGGAUCUGCACUUCCA: -0.0439
UCCUCAAGUCCUGUGCUACACAUCGUAUGUACCGAAUCGGUUUGGAGGUGGAAAGUAUUAUGUUACGCCGUUCGGAUCUGCACUUCCAGC: -1.39
GUCCUGUGCUACACAUCGUAUGUACCGAAUCGGGCCCCCGGCCCCCGGGCCCCCGGGGAAAGUAUUAUGUUACGCCGUUCGGAUCUGCAC: -1.56
UACCUGAUCAAUGACAGAGCCUUCUGAGGACAUUCCAAGACAGUAUACAGUCCUGUGGUCUCCUUGGAAAUCCGUCUAGUUAACAUUUCA: -2.07
AGUCCUGUGCUACACAUCGUAUGUACCGAAUCGGGAAAGGGUUUGGGUUUUUUUGGGAAAGUAUUAUGUUACGCCGUUCGGAUCUGCACU: -2.22
UAACUUUAGAGGAGGAUCUGAUGGAUAUCGCAGUGGACGUGGAUUUGGGGAUGGCUAUAAUGGGUAUGGAGGAGGACCUGGAGGUGGCAA: 0.308
CACAGACAACACGCACCCACACAGACACAGAGGGAAGGGGUUGGGAUGGGGACAGGGUGCACAGCAGGGCGGGGUAGGACCCCAGUCCCU: -0.958
CCUCAAGUCCUGUGCUACACAUCGUAUGUACCGAAUCGGGGAGGAGGGGAGGAAAGUAUUAUGUUACGCCGUUCGGAUCUGCACUUCCAG: -0.268
UCCUGUGCUACACAUCGUAUGUACCGAAUCAAAUUUAAAUUUUUUUAAACCCCCCCAAAAAAGUAUUAUGUUACGCCGUUCGGAUCUGCA: 1.89
UGGGAGGUGGAUUUUGUUUAUUUUUUUAGCUCACUUCCAGGGGUGGGAAUUUUUUUUUAAUAUGUGUCAUGAAUAAAGUUGUUUUUGAAA: 0.515
UUCCUCAAGUCCUGUGCUACACAUCGUAUGUACCGAAUCGGCGGCGGCGGAAAGUAUUAUGUUACGCCGUUCGGAUCUGCACUUCCAGCA: 0.736

Study 2
Target: CCNA1, cyclin fold, Cln2 fusion (human)
Method: yeast growth competition, sequencing
Medium: yeast
Setting: weak parent motif
Relative to: not given
Reading: higher = stronger binding
Measurement: normalised enrichment score
Parent: CDC25A docking peptide (human); PPHRRRLLFACSP; partner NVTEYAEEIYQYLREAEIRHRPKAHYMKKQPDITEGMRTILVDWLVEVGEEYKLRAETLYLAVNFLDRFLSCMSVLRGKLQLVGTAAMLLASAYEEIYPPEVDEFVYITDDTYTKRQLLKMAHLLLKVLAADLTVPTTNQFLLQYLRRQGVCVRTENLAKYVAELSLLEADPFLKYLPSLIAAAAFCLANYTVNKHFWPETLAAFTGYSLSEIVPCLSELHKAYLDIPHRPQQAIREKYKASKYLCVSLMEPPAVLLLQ
PPHRRRLLFACIP [S12I]: 0.443
PNHRRRLLFACSP [P2N]: 0.161
PPFRRRLLFACSP [H3F]: 0.51
PPHRRRLLFQCSP [A10Q]: 0.43
PPHRRRLLFLCSP [A10L]: 0.0582
PPQRRRLLFACSP [H3Q]: 0.119
PPERRRLLFACSP [H3E]: 0.0588
PPHRRRCLFACSP [L7C]: 0.321
PPHRRRALFACSP [L7A]: 0.367
PPHRRRLLFACSS [P13S]: 0.23
PPHRRRLLFACSQ [P13Q]: 0.483
PPHRRRLLFACSM [P13M]: -0.109
PPHRRRTLFACSP [L7T]: 0.395
PPHRERLLFACSP [R5E]: 0.277
PPHRRRLVFACSP [L8V]: 0.329

Study 3
Target: Phosphate system positive regulatory protein PHO4, full length, GST-tagged (PHO4, Saccharomyces cerevisiae, UniProt P07270, residues 1-312)
Method: competition protein-binding microarray
Form: double-stranded DNA, one strand shown
Medium: in vitro
Tested at: 2 µM
Setting: whole 60-bp probe, lowest competitor level
Added: Cbf1 competitor, 0.05 µM
Reading: higher = stronger binding
Measurement: fluorescence intensity
Constant ends, left off below: … GTCTTGATTCGCTTGACGCTGCTG
Residues (chain): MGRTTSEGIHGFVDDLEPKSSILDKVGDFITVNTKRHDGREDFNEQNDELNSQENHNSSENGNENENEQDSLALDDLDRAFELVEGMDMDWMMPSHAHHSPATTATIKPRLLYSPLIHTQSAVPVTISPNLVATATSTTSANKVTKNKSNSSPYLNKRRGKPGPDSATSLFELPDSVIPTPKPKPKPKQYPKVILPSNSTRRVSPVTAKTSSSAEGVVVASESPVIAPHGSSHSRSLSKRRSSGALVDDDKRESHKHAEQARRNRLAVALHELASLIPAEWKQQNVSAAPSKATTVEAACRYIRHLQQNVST
CTTTCCCGATCTTGTCACAAGACTTTAGCACATTTG: 4620 a.u.
TTATTCCGCCGATTCCACGGGTGCGGTGCTACCAAG: 5970 a.u.
CACCGCCCCCAGGTAACCGTGCGGAATGAGCTAATC: 4680 a.u.
TGCGCAACAACTTGTCACGCCACTTTATGTCTAGAA: 4930 a.u.
GGATCTGCCTATGCCTTCGTGGGTAATCTCTTACTC: 4890 a.u.
GACCAGCTTGTGAGGCATGTGTCACCCTGGAATTTC: 7910 a.u.
TTATCCACTACCTGTCATGATGGTCCATTTGGTGCT: 4330 a.u.
CGGGGTTAAGTTTTTCACGTGGAATGCTTGCAGCAG: 10000 a.u.
TAGAGGTGCCATTGTCATGTTCAGATCCAAAGAAGG: 3890 a.u.
AGATACATTACCACCTTCGTGATTGGAATGAATGGT: 6490 a.u.
TTATTGCTGTTAGGACCCGTGATGGGTTCGTAGATC: 6600 a.u.
CGGGGTTAAGTTTGTCACCCAACTTGCTTGCAGCAG: 3120 a.u.
GAGGTTCGGTTTTGTCATGTGTGCTTTTATACGGCA: 7980 a.u.
TCCCATTGCATTACCCACGTGTGGAAGCGTCTTCCA: 20800 a.u.
TTGATTCAAGCTCCACACGTGAGTCGAATGAACCTG: 15400 a.u.
GCAAATTACCATTTGAGCGTGCGGAAATAAGCTCCT: 6640 a.u.
AACCGCATCCCGTCCCACGTGACGGACGGCACCCAA: 16900 a.u.
TGCGCAACAACTTGATTTGTGGGTGTATGTCTAGAA: 4450 a.u.
CGTCCTAGCGATTGATACGTGGGTGCCATGAGGAAG: 9610 a.u.

Study 4
Target: Sal-like protein 4, full length isoform A (SALL4, Homo sapiens, UniProt Q9UJQ4, residues 1-1053)
UniProt Q9UJQ4, sequence (whole entry, looked up): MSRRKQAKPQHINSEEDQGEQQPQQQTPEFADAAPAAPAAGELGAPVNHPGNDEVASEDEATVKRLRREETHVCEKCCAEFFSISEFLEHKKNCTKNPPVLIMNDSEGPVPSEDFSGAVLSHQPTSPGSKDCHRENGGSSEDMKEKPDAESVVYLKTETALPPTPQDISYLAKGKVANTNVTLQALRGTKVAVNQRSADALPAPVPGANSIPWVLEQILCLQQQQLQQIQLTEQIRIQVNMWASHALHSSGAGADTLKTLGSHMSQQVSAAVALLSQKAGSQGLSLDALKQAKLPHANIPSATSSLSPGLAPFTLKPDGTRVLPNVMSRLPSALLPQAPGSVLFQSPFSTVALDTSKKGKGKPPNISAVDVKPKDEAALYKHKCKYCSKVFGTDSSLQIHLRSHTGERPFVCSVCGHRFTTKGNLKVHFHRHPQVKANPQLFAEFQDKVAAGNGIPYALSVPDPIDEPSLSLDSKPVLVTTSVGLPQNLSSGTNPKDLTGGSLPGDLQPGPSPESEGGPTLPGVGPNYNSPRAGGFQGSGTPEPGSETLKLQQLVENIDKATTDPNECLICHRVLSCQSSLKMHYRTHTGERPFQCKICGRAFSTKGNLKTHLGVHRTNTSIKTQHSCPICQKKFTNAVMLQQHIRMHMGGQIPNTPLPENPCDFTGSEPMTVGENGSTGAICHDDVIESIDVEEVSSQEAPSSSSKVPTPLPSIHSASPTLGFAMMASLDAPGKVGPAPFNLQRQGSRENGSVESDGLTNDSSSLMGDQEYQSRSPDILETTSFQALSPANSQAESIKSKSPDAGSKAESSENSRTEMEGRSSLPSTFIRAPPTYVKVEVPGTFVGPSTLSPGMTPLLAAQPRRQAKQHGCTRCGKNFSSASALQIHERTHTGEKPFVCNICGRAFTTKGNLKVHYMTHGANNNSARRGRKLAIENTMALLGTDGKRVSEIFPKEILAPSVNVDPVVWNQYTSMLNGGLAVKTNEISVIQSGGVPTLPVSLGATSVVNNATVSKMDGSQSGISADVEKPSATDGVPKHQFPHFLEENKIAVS
Method: universal PBM
Form: double-stranded DNA, one strand shown
Medium: in vitro
Tested at: 600 nM
Setting: 8-mer, flanks averaged, mean of replicates
Reading: higher = stronger binding
Measurement: E-score
CCAGAACC: -0.178
ATGCAACC: 0.105
TGAGTACA: 0.137
ACTGATAA: 0.306
AAACATGC: 0.0568
TGGTCCAA: -0.168
AGATGGCG: -0.173
AATCACGC: 0.00844
GTTCAAAA: 0.154
GAGCGGTA: -0.00807
CTCAAGGA: 0.0314
GAGAGCAA: -0.0996
AGGGCCCA: -0.372
ACTCCGCC: -0.212
AGGTAATA: 0.315
ACCCTGTG: -0.187
CCTGCCCG: -0.29
ATGATCAA: 0.258
AGAAGAAT: 0.0753
CATGTTCC: -0.0653
ATGTCATG: 0.15
ACGTTATG: 0.333
ACGTATCT: 0.0441
CCTACACC: 0.004
CTAGGGGA: -0.29

Study 5
Target: Interferon regulatory factor 7, full length, phosphomimetic (IRF7, Homo sapiens, UniProt Q92985, residues 1-503, S471D/S472D/S475D/S476D/S477D/S483D/S484D/S487D)
UniProt Q92985, sequence (whole entry, unmodified, looked up): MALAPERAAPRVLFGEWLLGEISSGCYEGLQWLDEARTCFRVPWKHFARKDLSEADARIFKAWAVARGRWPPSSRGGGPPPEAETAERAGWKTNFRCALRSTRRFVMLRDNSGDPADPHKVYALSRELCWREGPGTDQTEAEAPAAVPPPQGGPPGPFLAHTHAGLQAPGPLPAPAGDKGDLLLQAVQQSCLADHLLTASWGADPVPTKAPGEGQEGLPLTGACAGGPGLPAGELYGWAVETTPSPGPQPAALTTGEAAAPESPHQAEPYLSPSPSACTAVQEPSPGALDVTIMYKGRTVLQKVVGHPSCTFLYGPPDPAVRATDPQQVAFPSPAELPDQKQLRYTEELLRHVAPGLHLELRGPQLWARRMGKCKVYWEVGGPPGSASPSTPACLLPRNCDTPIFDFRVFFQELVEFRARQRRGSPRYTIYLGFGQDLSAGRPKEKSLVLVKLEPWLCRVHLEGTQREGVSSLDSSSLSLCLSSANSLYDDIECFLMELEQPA
Method: protein-binding microarray
Form: double-stranded DNA, one strand shown
Medium: in vitro
Tested at: 2200 nM top
Setting: 60-bp whole probe
Added: salmon DNA 0.4 mg/ml
Relative to: random background probes
Reading: higher = stronger binding
Measurement: fitted relative affinity
Constant ends, left off below: GCCTAGCAC … GTCTTGATTCGCTTGACGCTGCTG
GACGGACTGTGGTATCGGGACGTGCTA: -0.652 z-score
TTAGGACTGGGGACTGGCTTAGTGCTA: -1.06 z-score
TTAGGACTAGGTATCGGTTAGTGCTAG: -0.0039 z-score
TCATCTATTGCTTTCTCACTGTGCTAG: 1.86 z-score
TTAGGTCTCCTTTTCCCTTAGTGCTAG: 1.72 z-score
GACAATTTCGGGTATCGAGACGTGCTA: 2.75 z-score
TTAGATCTCAGTAACGATTAGTGCTAG: -0.339 z-score
TCATTTTTTTTTTCCCTACTGTGCTAG: 2.93 z-score
TTAGGACTGGGACTGGGATAGTGCTAG: -0.913 z-score
TTAGGTCTTGGTTTCGGTTAGTGCTAG: 5.98 z-score
TTAGCTCTCGGTATCGGTTAGTGCTAG: 0.896 z-score
TTAGATATCGGGTTTCGAATAGTGCTA: 1.19 z-score
TTACATTTCAGTTTCGATTAGTGCTAG: 8.42 z-score
TTAGACCTCAGTTTCGATTAGTGCTAG: 5.68 z-score
TGAGATTCCAGTTTCGATTAGTGCTAG: 6.15 z-score
TCATGACTCTTTCTGTCACTGTGCTAG: 1.28 z-score
TTAGGTTCCGGTATCGGTTAGTGCTAG: 1.79 z-score
TTAGGACTGGGTTTCGGTCAGTGCTAG: 1.19 z-score
TGGCTTTGCCTTTTGCTTTAGTGCTAG: 0.995 z-score
TTAGATTCCAGTTTAGATTAGTGCTAG: 1.12 z-score
TTAGGACTGGACACTGGGGTAGTGCTA: -0.709 z-score
TTAGGTCTCGTTATCGGTTAGTGCTAG: 1.29 z-score
TTAGGACTGGGTCTCGGTCAGTGCTAG: -0.831 z-score
TTAGGTATGCTACTGCTTTAGTGCTAG: 0.145 z-score
GGCGATTTCAGACTGGAGACGTGCTAG: -0.153 z-score

Single results of other studies
PhoQ, residues 284 288 289 292 302 303 WVSSAF
fold induction (PhoP, residues 12 14 15 18 19 LWHSL (Escherichia coli, UniProt P23836); Sort-seq, refers to: YFP reporter; E. coli; PhoQ-PhoP variant library, added: 10 µM Mg2+; relative to: high Mg2+ state, higher = stronger signaling): 5.96 and 14.6

Some of these lines once more (study 3):
CTTTCCCGATCTTGTCACAAGACTTTAGCACATTTG: 4620 a.u.
GCAAATTACCATTTGAGCGTGCGGAAATAAGCTCCT: 6640 a.u.
TGCGCAACAACTTGATTTGTGGGTGTATGTCTAGAA: 4450 a.u.
AGATACATTACCACCTTCGTGATTGGAATGAATGGT: 6490 a.u.
CGGGGTTAAGTTTGTCACCCAACTTGCTTGCAGCAG: 3120 a.u.
TAGAGGTGCCATTGTCATGTTCAGATCCAAAGAAGG: 3890 a.u.
GACCAGCTTGTGAGGCATGTGTCACCCTGGAATTTC: 7910 a.u.
CGTCCTAGCGATTGATACGTGGGTGCCATGAGGAAG: 9610 a.u.
TTGATTCAAGCTCCACACGTGAGTCGAATGAACCTG: 15400 a.u.
TTATCCACTACCTGTCATGATGGTCCATTTGGTGCT: 4330 a.u.
CGGGGTTAAGTTTTTCACGTGGAATGCTTGCAGCAG: 10000 a.u.
TCCCATTGCATTACCCACGTGTGGAAGCGTCTTCCA: 20800 a.u.
CACCGCCCCCAGGTAACCGTGCGGAATGAGCTAATC: 4680 a.u.
TTATTCCGCCGATTCCACGGGTGCGGTGCTACCAAG: 5970 a.u.
AACCGCATCCCGTCCCACGTGACGGACGGCACCCAA: 16900 a.u.
TGCGCAACAACTTGTCACGCCACTTTATGTCTAGAA: 4930 a.u.
